Measurements of several laboratories.
Numbered parts are unrelated; each lists some results of a single study. Positions count from the first letter of the parent shown.

Set 1 — technique: RNA Bind-n-Seq; form: RNA; matrix: in vitro; concentration: 365 nM; baseline: no-protein control; reading: higher = stronger binding
Target: RNA binding protein fox-1 homolog 2, RRM domain, GST-SBP tag (RBFOX2, Homo sapiens, UniProt O43251-10, residues 100-194)
Notes: natural RNA segment, single round, ends assumed
Shared flanks, not repeated: GGGAGUUCUACAGUCCGACGAUC … UGGAAUUCUCGGGUGCCAA
Residues (chain): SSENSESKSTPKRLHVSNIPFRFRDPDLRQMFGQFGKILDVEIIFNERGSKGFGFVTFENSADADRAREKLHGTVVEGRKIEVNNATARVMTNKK
Sequence | RBNS enrichment (R)
GGCAGCACCUUGGAGACCAAGCAGCCAUCCCAGCGAAGACUUACCUGCCUGGCCCCACCACCUGGAGUGUUUCAGAGAAUCACUUGGUGGCAGUCACGUGGCUGACUCCU | 0.273
AACCUAUUGCCUAUGAGAAACAUGUAAGAUAAUGUAUUUACAGCCAUUGUUACAAGUUUAUAAUGUAUUUUUCUAUCUUGUUUUAUAUGUAUGUUAUAUAACAUUCAAAA | 0.479
UCUAUGGCUCUUCCUGAGAGCACACCUCUGGGUCUCAUCUGACAGAGUCUGUGGGCCAAGUGUCUGCCUAGAAGAGCUGUGUAUGUCUGGCUAGAAGCAGCCAGGCCAUG | 0.357
AAGAUAUUGGGAGAAAACAAACUGUACCACAACAAAUCUUAAGUUUCAAGGCUCUCCUAUAGGGAGAAACAUGGCCAAAAAGACAGGAAGAACUGUGGCUUGUAACUCAA | 0.31
GGCUAAGGAAAGACAUGUUUUUCUCUUUUAAAUCUCUGCAACUCCAAAGUAGACUCCUUCGAACGUAUUUAAUUUGGCCUUUUCAGCUUUCUUCUUGCCCAGCUCUGUCG | 1.4
UGAUUAAGCCAUGCCAGAUGGUCUUUGGUGCACACAGUUAUUUAAGAAUCCACUUCCACAGGUGGCUGCCCUUGUAAGGAAGAAUGCAUCCCUAAAUGUGGCCACCAGAG | 2.15
CAGCUGAGGCCCAGGGCCUUGCUCCCUGGGAAAUUCUCUUCUCUCCAUCUUUCGGUGCAUUGGCCAUGUUACUGUGCCAAAGUGUCUUAAUUCUUGUCCCAUCUAUUCUC | 0.308
UUGAGCAGCCUAUGAACCUAAAGACAUACUGCAGUUUGUUCAUAAAUGUAUUCAGUCUUUUAUUCUUUAUAAUUGUGUGUAAAUGUUAACUAAACAGUGGAUUCCUCUCG | 0.562
CAGCCAAAACCUGGCCUGGCUACCAAGAAGAGUGGGAAGACAGGAGGAGCAGACUGCUGCUGUUUUGGGGCUAGAUCCUUUCCUCUCCUCUCUGCUGCACCACUGUCAGA | 0.41
AUUGUGGCACCCACAGCAAGCAGUUGCCUUACCAGUGAAAAAGGUGCACUGAGGUAACAUCUAAAACAGAGAUGUGGUUCUUAAUGUUUAACAGAACAGUUCUAAUCCUG | 0.612
GGGUAGUAGCCUUGUUAUUUGACUUAACUUGGUGGGGACAUGAAUAAAGGUCAAAGGUUGCACCGUGUGUGGCAGCUUCCUGUCUUUACUGGCCUACCUUGGCUGUGAGC | 0.377
GUCCUUGGCCGUCUCCCUCAGCUCUGCCUGGGCUCCGAGGGAGAUGGAAGUCCGUCAGGGAACAGGUAGUUCUAAGUGCGUGGCUAAAUGAUUUGGACAAGCUCCUGUGU | 0.414

Set 2 — technique: RNA Bind-n-Seq; form: RNA; matrix: in vitro; concentration: 100 nM; notes: RNA with constant flanks, ends assumed; baseline: input RNA pool; reading: higher = stronger binding
Target: RING finger protein unkempt homolog, zinc fingers 1-6, SBP tag (UNK, Homo sapiens, UniProt Q9C0B0, residues 30-357)
UniProt Q9C0B0, sequence (30-357, looked up): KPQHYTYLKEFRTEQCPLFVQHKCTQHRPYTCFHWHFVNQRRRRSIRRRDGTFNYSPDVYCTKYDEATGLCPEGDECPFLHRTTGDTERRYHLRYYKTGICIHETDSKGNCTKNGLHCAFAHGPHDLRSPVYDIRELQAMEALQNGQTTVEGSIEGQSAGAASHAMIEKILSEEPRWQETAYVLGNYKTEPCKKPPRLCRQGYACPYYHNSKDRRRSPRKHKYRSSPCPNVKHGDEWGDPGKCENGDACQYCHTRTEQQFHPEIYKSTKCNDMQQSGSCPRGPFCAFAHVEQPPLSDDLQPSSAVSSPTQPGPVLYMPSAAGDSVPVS
Shared flanks, not repeated: GGGAGUUCUACAGUCCGACGAUC … CAACAGAGGAUUGAGCAUCA
Sequence | bound/input enrichment [ratio]
AUUUAAAAUGCCGUCCGUUAUAUUUAAUGACCUCAUUCCUAAGUUCCUUUUUCGUUAAUGCCGCUUUCAUUUCUGUUAUUGCUGUUUGAAUAAUAUGAUUAAACCGAAGGUUUGUGCCAG | 0.357
GUGGGGAUGAGGGUGGGAUGGGAAAGGGAUGUAUGGAUGUUAUUGGCAUUUUUAAGUGUUCCGAGUUUUUUGGGGUUUGGGGUGGUUUUUUUUCCUUGUUUUCCUUUUUUCCUUUUAAUU | 1.07
GUGACUUUGGAAGUCCGCCGUGUCUCAUUGCAGAUAAUUUUCCGCUCCGGGCCUGGUGGCCCGGUCGGUUCUCUCCUUUCCAGUCGGAGACCUCUGCCGCAAACAUGCUCCGCCAGAUCA | 0.384
UCCCCAUUACCCCUAAAGCCGAACAUUUUUUAAAUUGUGUUGCCACCACUUCUAAAAAUUCCGCAAUAUCCGAACCGGAUACCCGUGAAGUAAGAAAUUUUGCUUGUUGUUUUGCAAACC | 0.677
GUGUUUUGUACAGGGCAUUCUCUGUACCCGUUUGUCGUGGUUAUAAAACAAUCCGCAGAACCGCCUACAUUUGUAUUUAUUUUCUAUUCCAUACUUCUGCCCACGUUGUUUUCUCUCAAA | 0.715
UCAGUCCCCUGGGCCGGGACAGAUUUUUUUUAACGUCUUGAAACUUAAACUCUGUGCUUGCCGGAUACUGUAACCUUUUUGUCUUUUUUUUUUUUUUUUUUUUUAAACCUCCACCUCCAG | 2.34

Set 3 — target: CCNE2, cyclin fold, Cln2 fusion (human); technique: yeast growth competition, sequencing; matrix: yeast; notes: weak parent motif; baseline: not given; reading: higher = stronger binding
Starting sequence: RB1 docking peptide (human); PKPLKKLRFDIEG; partner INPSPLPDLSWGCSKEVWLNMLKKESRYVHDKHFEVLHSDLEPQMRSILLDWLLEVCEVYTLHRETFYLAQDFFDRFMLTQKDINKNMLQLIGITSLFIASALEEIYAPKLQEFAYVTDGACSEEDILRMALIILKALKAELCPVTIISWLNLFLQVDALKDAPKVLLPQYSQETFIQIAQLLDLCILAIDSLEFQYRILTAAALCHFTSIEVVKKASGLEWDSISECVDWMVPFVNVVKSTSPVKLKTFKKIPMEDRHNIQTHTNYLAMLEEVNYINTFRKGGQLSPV
Change | normalised enrichment score
PKPLKKLRFDICG [E12C] | 0.843
PKPLKKQRFDIEG [L7Q] | 0.346
PKPLKKLRSDIEG [F9S] | 0.282
PKPLKKLRFDIGG [E12G] | 0.81
PKPLKKLRFEIEG [D10E] | -0.0957
PKPLDKLRFDIEG [K5D] | 0.0759
AKPLKKLRFDIEG [P1A] | 0.0367
PKPLKKLRFDDEG [I11D] | 0.0649
LKPLKKLRFDIEG [P1L] | 0.566
PKPTKKLRFDIEG [L4T] | 0.327

Mixed results
Molecule | target | assay | test system | conditions | how to read | endpoint | value
PhoQ, residues 284 288 289 292 302 303 NLGVHL | PhoP, residues 12 14 15 18 19 STWGI (Escherichia coli, UniProt P23836) | Sort-seq, refers to: YFP reporter | E. coli | PhoQ-PhoP variant library, together with: 10 µM Mg2+ | baseline: high Mg2+ state, higher = stronger signaling | fold induction | 33.5

Some of these lines once more (set 1):
Sequence | RBNS enrichment (R)
GGGUAGUAGCCUUGUUAUUUGACUUAACUUGGUGGGGACAUGAAUAAAGGUCAAAGGUUGCACCGUGUGUGGCAGCUUCCUGUCUUUACUGGCCUACCUUGGCUGUGAGC | 0.377
GGCAGCACCUUGGAGACCAAGCAGCCAUCCCAGCGAAGACUUACCUGCCUGGCCCCACCACCUGGAGUGUUUCAGAGAAUCACUUGGUGGCAGUCACGUGGCUGACUCCU | 0.273
